Experimental data of several laboratories.
A part holds a random share of what one study measured.
UniProt P43250, sequence (whole entry, looked up): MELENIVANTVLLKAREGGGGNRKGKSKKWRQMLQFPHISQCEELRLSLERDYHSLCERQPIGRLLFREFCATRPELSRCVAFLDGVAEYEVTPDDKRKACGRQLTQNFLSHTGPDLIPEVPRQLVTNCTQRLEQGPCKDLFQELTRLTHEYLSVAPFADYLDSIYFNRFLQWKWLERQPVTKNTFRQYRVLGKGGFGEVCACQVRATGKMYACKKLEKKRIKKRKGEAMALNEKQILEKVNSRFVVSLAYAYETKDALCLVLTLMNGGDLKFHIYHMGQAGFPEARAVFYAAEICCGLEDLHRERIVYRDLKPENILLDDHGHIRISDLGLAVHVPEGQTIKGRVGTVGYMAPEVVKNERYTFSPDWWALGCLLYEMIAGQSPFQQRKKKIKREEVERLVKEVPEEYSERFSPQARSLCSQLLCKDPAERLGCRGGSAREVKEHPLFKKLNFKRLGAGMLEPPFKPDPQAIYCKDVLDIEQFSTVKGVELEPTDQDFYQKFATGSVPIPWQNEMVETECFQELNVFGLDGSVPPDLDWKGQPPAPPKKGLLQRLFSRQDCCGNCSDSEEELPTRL

Sample 1
Target: Transcription factor SOX-2, HMG box (SOX2, Homo sapiens, UniProt P48431, residues 19-118)
UniProt P48431, sequence (19-118, looked up): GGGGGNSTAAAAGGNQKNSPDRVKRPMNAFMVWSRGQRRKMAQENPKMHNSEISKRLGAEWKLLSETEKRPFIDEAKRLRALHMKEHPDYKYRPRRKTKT
Technique: protein-binding microarray
Molecule type: double-stranded DNA, one strand shown
Matrix: in vitro
Concentration: not given
Setting: k-mer, scored over probes, only values ≥0.25
Reading: higher = stronger binding
Strand	E-score
GATTGTA	0.262
AATAGAG	0.305
ACAAAAG	0.393
CAATGGA	0.347
AATTGTC	0.456
AATTAAC	0.306
CTTTTTA	0.332
GTAACAA	0.313

Sample 2
Target: Prothrombin, mature alpha-thrombin (F2, Homo sapiens, UniProt P00734)
Technique: aptamer microarray, sandwich
Molecule type: DNA with 2'F-ANA
Matrix: in vitro
Concentration: 200 nM
Setting: whole 15-mer aptamer, many near background
Added: Cy3 exosite-II aptamer, 400 nM
Reading: higher = stronger binding
Strand: GGTTGGTGTGGTTGG
Modification	mean fluorescence intensity
2'F-ANA at 2 4 7 8 10 15	99.6 a.u.
2'F-ANA at 2 3 7 9 11 12 13 14 15	445 a.u.
2'F-ANA at 1 2 3 4 5 7 8 9 10 12 13	48.6 a.u.
2'F-ANA at 1 3 4 6 7 8 9 11 12	326 a.u.
2'F-ANA at 2 5 7 12 13 15	106 a.u.
2'F-ANA at 2 4 7 8 10 13	98.9 a.u.
2'F-ANA at 2 4 5 6 7 9 11 15	61 a.u.
2'F-ANA at 1 2 4 5 7 10 12 15	47 a.u.

Sample 3
Target: Hepatocyte nuclear factor 3-alpha (Foxa1, Mus musculus, UniProt P35582, residues 1-468, full length assumed)
Technique: EMSA with sequencing
Molecule type: double-stranded DNA, one strand shown
Matrix: in vitro
Concentration: 10 and 20 nM
Setting: whole designed probe, mean of two concentrations, ends assumed
Relative to: negative control set to 0
Reading: higher = stronger binding
Shared flanks, not repeated: GTGAGCGGTGCCCATTGATGGGGAAC … TTTCACTGGGATCGTGGGGAC
Residues (chain): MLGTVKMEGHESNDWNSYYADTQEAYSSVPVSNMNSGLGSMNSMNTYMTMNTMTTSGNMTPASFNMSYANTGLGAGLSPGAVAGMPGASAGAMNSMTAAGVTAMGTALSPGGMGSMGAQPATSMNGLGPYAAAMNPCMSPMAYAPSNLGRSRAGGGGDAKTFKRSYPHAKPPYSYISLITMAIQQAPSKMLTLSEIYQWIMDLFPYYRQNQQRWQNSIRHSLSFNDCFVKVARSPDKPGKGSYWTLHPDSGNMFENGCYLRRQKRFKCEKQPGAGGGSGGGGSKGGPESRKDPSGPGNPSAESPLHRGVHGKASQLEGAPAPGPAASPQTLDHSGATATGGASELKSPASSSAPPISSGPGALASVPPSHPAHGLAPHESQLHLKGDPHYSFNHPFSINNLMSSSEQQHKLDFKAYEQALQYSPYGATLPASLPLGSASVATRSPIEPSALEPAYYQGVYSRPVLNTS
Strand	normalised bound fraction
GGTGTTTAAGAAAACAAGCCAGAATTAGATAAAGTAAAACTTACTTTATTAAATAGGATGGACACCACTTCTCCCAAGAGAACTGTCTCCAAAAGTAAACAAGAAAGATCAATCTGGTAAACTCACATCATACAGGTTCCCGTGTAAGGTATCGGGTTCAGGCAGGTGGAAGCCAAATGATCGTAATTAAAGT	0.448 ratio
GTCCTGATGTAGGGGACCATAAACTATGGTGGGTAACTGGCCCTTCAAAATAGCCATCAAATGGCAACACTTGCCTAAACCTTGGAGGGCATTGTAATCTGGGATCTTCTGGGTGTCACCTCAAGAATTTAAGACTTCTAAACAGGGAATATTGATCCCGCCTAAAGGGAAGAATCTTATCAGATGAGAAAAG	-0.0788 ratio
TCCCATCTAAGAAGGATGCTGGCTTCTCCTGCTGTTGGTCTGTTTACACCAAACTGACTTGATATTTTTATCTGTTTACGAAGTGGTGCAAAATGTTTACATAGTAGTGACCTGGTTTCTGTGGATCTGGGAGTGCTGTTTGCAGTAGAATGTTTGCTAATCTTCCGTGACGCTCTAATCGTTTGTATTTAGT	0.489 ratio
CTGCGGATCACCCCAAGGAAAATCCAGACTGATTCGATCAGTCCTAGCTGGAAGCAGCACAGGAATAGCAGGAAGCCTATGACTCATTTTAAGCAATCTTCCGGTAACCCGACTGGTATCTGGTTCAAATGGGGAAACCTGAAGCACCTATGACAGGCCAGGCCCAGAGAAGATACTGCCCAGATGGATACAG	-0.1 ratio
CAAGTTTGTGGTCCAGGAGCAACAGGTTATGCCATACAGCCTAGGTGTGTAGTAGGCTACACACCGTCTATGTTTGTGTTGTACACTCTACAATGTTTGCACAATGATGAAATCCCATGACTCATTTCTCAGAACATACCCCTGTTGTTAAGCGATACATGACTGTACTTTTTTTAAAAAGTCCAAGGATATA	0.489 ratio
TTCTGAAATGTCTCCCTCAGCTTCTCTCATTCAAACGTAGACTCTGATCAATTTCACCATCAATGCCATTGCACAGAGACAGCGCTTTGACTAAGTAATCTAGACATCTTTTTCAACTAGTGCAGCCCAATGAATGTGGTTAATAATTAAGTGACTAATATTTTGTAAGGCTGTGTGAGAAGCATTAATTAGG	-0.0575 ratio
AAACTTCCTGTCCCATCACCCAGCATCAACACCATTAACCAGTCATGACTAATCCTGCCCCATCCACGTCCCCAGCCTTTCCCCGACTTCTCAAAATTGCTTTGAAACAAATCCCAGATATAATATCATTTCATTGTGAGGTTGTTGTGAGGATTAACTAAAAGCATGCCTATCATATGGGTCTCTAAAAGAT	0.342 ratio
ATCTTCCCCCTCTTCCTTGCCCCACCAGCTCACCTTCCCGGGTTATTTGCACAAAGGAAAATAAATAAAGCCGGCATTCGTTAACGCAGTTCACGCGCATACTGCTGTTTGCTCTGCATCTAACATGGTCCTTACGCGAGGCGTGGCTCCGGGAGAGCAAAGCACCGTGTCAGGCGCATGATCCGGGCTCGCC	0.386 ratio

Further values, each from its own experiment
SMILES	target	test	setting	how to read	endpoint	result
CC(C)(C)n1nc(Cc2cccc3ccccc23)c2c(N)ncnc21	G protein-coupled receptor kinase 6 (GRK6, Homo sapiens, UniProt P43250)	enzyme activity, inhibitor	0.5 µM	relative to: control	remaining activity	103%

Repeated from above (sample 1):
Strand	E-score
AATTGTC	0.456
AATTAAC	0.306
